{"data": "Experimental data gathered from unrelated publications", "note": "Numbers after ± are the reported error."}
{"Compound": "COc1ccccc1-c1c[nH]c2ncc(-c3cncc(C(=O)N(C)C)c3)cc12", "cell line": "Ba/F3 BCR-ABL T315I", "read-out": "cell proliferation", "time": "72 h", "GI50": "108 ± 7 nM"}
{"Compound": "[Cl-].[Cl-].[Ru+2].c1ccc(-c2ccccn2)nc1.c1ccc(-c2ccccn2)nc1.c1ccc2cc3nc4c5cccnc5c5ncccc5c4nc3cc2c1", "cell line": "SK-MEL-28", "method": "sulforhodamine B", "notes": "normoxia", "with": "red light 633 nm", "GI50": "195 nM"}
{"Compound": "O=C(C[Se]C(=O)c1cc2ccccc2s1)Nc1cccc(C(F)(F)F)c1", "cell line": "NCI60 NSCLC subpanel", "method": "NCI60 five-dose screen", "GI50": "1560 nM"}
{"Compound": "C=CC(=O)Nc1ccc(OC)c(-c2c[nH]c3ncc(-c4cncc(C(=O)N(C)C)c4)cc23)c1", "cell line": "Ba/F3 BCR-ABL T315I", "read-out": "cell proliferation", "time": "72 h", "GI50": "> 1000 nM"}
{"Compound": "CC(C)Cc1ccc(C(C)C(=O)[Se]CC(=O)Nc2cccc(C(F)(F)F)c2)cc1 (stereo not drawn)", "cell line": "NCI60 NSCLC subpanel", "method": "NCI60 five-dose screen", "GI50": "1780 nM"}
{"Compound": "COc1ccc(OC(C)=O)cc1-c1c[nH]c2ncc(-c3cncc(C(=O)N(C)C)c3)cc12", "cell line": "Ba/F3 BCR-ABL T315I", "read-out": "cell proliferation", "time": "72 h", "GI50": "139 ± 49 nM"}
{"Compound": "CCN(C(=O)c1cc(F)ccc1Oc1nncnc1N1CCC2(C1)CN([C@H](CCCN(C)CCOC)C(C)C)C2)C(C)C", "cell line": "WSU-NHL", "read-out": "cell growth or viability", "time": "7 days", "GI50": "> 10000 nM"}
{"Compound": "O=C(C[Se]C(=O)c1cc2ccccc2o1)Nc1cccc(C(F)(F)F)c1", "cell line": "NCI60 NSCLC subpanel", "method": "NCI60 five-dose screen", "GI50": "1620 nM"}
{"Compound": "O=C(Cc1ccc2ccccc2c1)N[C@H](Cc1ccccc1)C(=O)N[C@H](Cc1ccccc1)C(=O)N[C@H](Cc1ccc(OP(=O)(O)O)cc1)C(=O)O", "cell line": "HS5", "read-out": "cell growth or viability", "method": "MTT", "GI50": "572000 nM"}
{"note": "For quick reference, copied from above:"}
{"Compound": "O=C(C[Se]C(=O)c1cc2ccccc2s1)Nc1cccc(C(F)(F)F)c1", "cell line": "NCI60 NSCLC subpanel", "method": "NCI60 five-dose screen", "GI50": "1560 nM"}
